{"data": "Measurements from different studies", "note": "Every numbered part comes from another study and shows a few of its results, in no order.", "sequence of UniProt Q13131 (whole entry, looked up)": "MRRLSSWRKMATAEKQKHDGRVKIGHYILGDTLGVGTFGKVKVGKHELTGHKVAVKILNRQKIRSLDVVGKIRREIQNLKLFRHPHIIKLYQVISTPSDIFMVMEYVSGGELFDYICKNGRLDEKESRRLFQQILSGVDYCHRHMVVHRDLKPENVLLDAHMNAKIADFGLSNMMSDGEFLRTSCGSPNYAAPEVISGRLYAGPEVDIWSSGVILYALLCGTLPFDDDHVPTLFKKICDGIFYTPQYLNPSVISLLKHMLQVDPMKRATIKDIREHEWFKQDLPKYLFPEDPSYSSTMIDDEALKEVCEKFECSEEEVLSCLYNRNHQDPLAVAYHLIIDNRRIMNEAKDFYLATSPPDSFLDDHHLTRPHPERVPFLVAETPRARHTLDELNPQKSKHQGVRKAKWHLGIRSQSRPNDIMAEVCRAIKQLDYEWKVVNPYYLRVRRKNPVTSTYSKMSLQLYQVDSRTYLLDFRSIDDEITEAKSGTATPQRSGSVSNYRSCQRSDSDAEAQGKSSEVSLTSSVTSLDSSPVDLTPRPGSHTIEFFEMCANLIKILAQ", "sequence of UniProt Q86UE8 (whole entry, looked up)": "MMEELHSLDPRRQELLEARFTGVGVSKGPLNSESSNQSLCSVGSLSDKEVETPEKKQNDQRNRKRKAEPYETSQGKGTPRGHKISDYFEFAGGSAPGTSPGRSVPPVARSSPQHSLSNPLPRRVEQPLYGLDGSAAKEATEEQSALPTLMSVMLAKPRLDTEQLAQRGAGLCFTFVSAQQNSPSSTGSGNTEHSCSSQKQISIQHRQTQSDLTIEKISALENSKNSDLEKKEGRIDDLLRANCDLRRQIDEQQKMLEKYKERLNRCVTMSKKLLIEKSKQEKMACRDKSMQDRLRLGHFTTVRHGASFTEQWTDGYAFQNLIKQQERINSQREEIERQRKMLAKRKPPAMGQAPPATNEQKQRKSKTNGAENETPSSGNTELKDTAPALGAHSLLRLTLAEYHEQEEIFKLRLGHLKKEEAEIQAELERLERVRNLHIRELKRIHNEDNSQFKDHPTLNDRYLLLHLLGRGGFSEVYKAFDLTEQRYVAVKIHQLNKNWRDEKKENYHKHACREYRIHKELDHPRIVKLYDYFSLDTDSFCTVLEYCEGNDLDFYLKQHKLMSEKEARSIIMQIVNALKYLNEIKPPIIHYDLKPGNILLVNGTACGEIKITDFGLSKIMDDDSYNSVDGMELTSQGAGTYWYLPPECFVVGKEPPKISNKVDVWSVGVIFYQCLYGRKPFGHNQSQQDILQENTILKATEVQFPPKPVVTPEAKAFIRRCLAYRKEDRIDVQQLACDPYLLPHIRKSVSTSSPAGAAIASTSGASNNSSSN", "sequence of UniProt P21709 (whole entry, looked up)": "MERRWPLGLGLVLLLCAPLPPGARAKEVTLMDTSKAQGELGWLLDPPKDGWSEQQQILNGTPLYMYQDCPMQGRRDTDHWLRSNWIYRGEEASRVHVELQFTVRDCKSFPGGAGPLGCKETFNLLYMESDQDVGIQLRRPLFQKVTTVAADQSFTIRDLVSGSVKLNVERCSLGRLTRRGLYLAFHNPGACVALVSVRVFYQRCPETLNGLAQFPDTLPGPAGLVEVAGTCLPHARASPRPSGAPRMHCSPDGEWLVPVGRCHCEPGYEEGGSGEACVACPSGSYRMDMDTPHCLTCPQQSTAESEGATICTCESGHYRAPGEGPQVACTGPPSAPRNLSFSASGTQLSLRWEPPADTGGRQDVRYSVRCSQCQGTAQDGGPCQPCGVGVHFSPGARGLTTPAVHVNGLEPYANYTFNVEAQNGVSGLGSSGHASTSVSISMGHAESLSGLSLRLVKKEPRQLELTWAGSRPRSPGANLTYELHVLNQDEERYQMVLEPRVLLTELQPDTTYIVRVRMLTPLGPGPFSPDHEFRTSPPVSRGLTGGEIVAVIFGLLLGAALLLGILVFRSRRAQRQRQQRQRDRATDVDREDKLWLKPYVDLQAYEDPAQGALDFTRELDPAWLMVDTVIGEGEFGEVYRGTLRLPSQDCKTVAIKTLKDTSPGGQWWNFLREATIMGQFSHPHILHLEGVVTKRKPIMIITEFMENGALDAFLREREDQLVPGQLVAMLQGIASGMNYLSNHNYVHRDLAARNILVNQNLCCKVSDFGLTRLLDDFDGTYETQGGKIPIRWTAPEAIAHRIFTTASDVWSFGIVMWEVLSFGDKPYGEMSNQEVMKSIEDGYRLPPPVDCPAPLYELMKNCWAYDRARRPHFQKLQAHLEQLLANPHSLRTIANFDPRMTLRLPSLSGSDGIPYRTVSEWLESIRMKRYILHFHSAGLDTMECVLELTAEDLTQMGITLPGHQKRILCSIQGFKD", "sequence of UniProt Q05655 (whole entry, looked up)": "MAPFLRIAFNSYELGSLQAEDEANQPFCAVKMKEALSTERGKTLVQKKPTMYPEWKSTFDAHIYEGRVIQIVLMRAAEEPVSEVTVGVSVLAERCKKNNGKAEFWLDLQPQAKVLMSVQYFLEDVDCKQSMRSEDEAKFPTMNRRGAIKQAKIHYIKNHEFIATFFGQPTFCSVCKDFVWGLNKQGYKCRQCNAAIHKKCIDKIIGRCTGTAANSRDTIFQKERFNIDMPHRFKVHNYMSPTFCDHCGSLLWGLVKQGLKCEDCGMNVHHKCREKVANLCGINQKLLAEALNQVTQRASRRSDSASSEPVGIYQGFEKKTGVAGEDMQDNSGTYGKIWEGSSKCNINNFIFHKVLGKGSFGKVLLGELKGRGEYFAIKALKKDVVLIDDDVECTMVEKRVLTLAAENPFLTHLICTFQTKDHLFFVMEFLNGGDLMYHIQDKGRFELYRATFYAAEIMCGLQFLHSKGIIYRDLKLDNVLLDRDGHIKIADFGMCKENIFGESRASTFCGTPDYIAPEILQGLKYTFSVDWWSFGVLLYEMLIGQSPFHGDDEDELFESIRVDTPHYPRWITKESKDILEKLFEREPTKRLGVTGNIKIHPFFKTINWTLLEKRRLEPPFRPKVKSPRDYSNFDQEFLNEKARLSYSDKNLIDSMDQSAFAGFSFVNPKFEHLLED", "sequence of UniProt P07947 (whole entry, looked up)": "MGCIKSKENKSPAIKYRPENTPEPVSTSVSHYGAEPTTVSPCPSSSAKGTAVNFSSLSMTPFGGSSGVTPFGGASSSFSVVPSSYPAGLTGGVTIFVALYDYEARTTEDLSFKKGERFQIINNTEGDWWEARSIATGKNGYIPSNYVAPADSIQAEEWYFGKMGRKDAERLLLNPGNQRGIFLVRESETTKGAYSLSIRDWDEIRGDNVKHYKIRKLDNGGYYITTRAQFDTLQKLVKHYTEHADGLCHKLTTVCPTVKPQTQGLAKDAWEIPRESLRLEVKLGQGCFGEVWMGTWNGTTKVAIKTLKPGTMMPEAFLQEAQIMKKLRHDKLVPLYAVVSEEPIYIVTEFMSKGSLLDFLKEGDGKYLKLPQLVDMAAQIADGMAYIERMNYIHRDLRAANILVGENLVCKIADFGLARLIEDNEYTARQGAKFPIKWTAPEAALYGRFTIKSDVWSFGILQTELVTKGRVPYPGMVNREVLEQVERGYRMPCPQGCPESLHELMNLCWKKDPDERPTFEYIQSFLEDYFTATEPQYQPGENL", "sequence of UniProt Q15418 (whole entry, looked up)": "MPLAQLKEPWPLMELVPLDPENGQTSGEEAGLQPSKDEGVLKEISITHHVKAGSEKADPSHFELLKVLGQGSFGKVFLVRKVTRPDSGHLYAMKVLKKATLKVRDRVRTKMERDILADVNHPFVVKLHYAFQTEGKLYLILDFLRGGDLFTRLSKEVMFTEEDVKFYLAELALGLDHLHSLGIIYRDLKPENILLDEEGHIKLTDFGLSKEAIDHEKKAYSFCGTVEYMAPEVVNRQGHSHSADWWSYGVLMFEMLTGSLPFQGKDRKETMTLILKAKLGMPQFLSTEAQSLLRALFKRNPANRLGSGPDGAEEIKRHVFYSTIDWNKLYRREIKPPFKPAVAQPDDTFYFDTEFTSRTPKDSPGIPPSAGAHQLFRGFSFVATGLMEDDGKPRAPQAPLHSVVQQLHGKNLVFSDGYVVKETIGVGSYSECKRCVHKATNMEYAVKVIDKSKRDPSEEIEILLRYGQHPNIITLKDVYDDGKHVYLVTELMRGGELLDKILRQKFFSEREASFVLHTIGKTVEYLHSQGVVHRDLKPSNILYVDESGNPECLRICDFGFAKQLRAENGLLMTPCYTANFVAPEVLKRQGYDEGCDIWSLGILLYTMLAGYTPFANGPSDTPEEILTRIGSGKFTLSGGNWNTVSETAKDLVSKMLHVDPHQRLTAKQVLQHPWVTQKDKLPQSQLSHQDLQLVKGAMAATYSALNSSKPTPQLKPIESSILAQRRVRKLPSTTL"}
{"data": "Set 1", "species": "mouse", "medium": "microsomes or S9", "tested at": "2 µM", "time": "0.5 h"}
{"Compound": "CC1CC(C)CC(NC(=O)c2coc(CS(C)(=O)=O)n2)C1 (stereo not shown)", "remaining compound [%]": 69.3}
{"Compound": "COc1ccccc1Nc1cnnc2c(Cl)cccc12", "remaining compound [%]": 14.7}
{"Compound": "Oc1ccc([C@H]2c3c(O)cc(O)cc3[C@@H]3c4c(cc(O)c5c4[C@@H]2[C@@H](c2ccc(O)cc2)[C@@H]5c2cc(O)cc(O)c2)O[C@@H]3c2ccc(O)cc2)cc1", "remaining compound [%]": 65.3}
{"Compound": "Cc1csc(-c2cc(NC(=O)c3ccc(F)cc3F)c(C)s2)n1", "remaining compound [%]": 1.02}
{"Compound": "CN(C)CCCNC(=O)c1cc(S(=O)(=O)N(C)C)c(Cl)cc1Cl", "remaining compound [%]": 0.519}
{"Compound": "COc1cc(OC)c(CC2C(=O)N(c3ccccc3)c3ccccc32)c(OC)c1 (stereo not shown)", "remaining compound [%]": 0.646}
{"Compound": "COc1cc(=O)n2c(c1C(=O)NCc1ccc(F)cc1Cl)CCCC2", "remaining compound [%]": 43.1}
{"data": "Set 2", "Structure (SMILES)": "COc1ccc2c(c1)O[C@@H](c1ccc(OC)c(OC)c1)C[C@H]2NC(=O)C1(c2ccc3c(c2)OC(F)(F)O3)CC1", "read-out": "cell-free assay", "technique": "competition with immobilised ligand", "tested at": "1 µM"}
{"target": "Ribosomal protein S6 kinase alpha-1, N-terminal kinase domain (RPS6KA1, Homo sapiens, UniProt Q15418)", "remaining binding [%]": 98}
{"target": "EPHA1 (Homo sapiens, UniProt P21709)", "remaining binding [%]": 93}
{"target": "YES1 (Homo sapiens, UniProt P07947)", "remaining binding [%]": 100}
{"target": "PRKCD (Homo sapiens, UniProt Q05655)", "remaining binding [%]": 100}
{"target": "TLK2 (Homo sapiens, UniProt Q86UE8)", "remaining binding [%]": 100}
{"target": "PRKAA1 (Homo sapiens, UniProt Q13131)", "remaining binding [%]": 80}
{"target": "WEE1 (Homo sapiens, UniProt P30291)", "remaining binding [%]": 99}
{"data": "Set 3", "organism": "Sarcocystis neurona", "read-out": "parasite growth", "tested at": "10 µM", "time": "96 h", "setting": "first screen", "reference": "untreated"}
{"Compound": "OCCN(CCO)c1nc(N2CCCCC2)c2nc(N(CCO)CCO)nc(N3CCCCC3)c2n1", "log2 fold change": 0.06}
{"Compound": "OC[C@H]1O[C@@H](Oc2cc(O)cc(/C=C/c3ccc(O)cc3)c2)[C@H](O)[C@@H](O)[C@@H]1O", "log2 fold change": 0.29}
{"Compound": "C=CC1=C(C(=O)O)N2C(=O)[C@@H](NC(=O)/C(=N\\OCC(=O)O)c3csc(N)n3)[C@H]2SC1", "log2 fold change": 0.2}
{"Compound": "COc1cc2nc(N(C)CCCNC(=O)C3CCCO3)nc(N)c2cc1OC (stereo not shown)", "log2 fold change": -0.12}
{"Compound": "CC(=O)OCC(CCn1cnc2cnc(N)nc21)COC(C)=O", "log2 fold change": -0.09}
{"Compound": "CC1(C)O[C@@H]2C[C@H]3[C@@H]4C[C@H](F)C5=CC(=O)C=C[C@]5(C)[C@@]4(F)[C@@H](O)C[C@]3(C)[C@]2(C(=O)CO)O1", "log2 fold change": -0.38}
{"data": "Set 4", "target": "Serine/threonine-protein kinase PAK 1 (PAK1, Homo sapiens, UniProt Q13153)", "read-out": "enzyme activity", "mode": "inhibitor", "tested at": "0.5 µM", "reference": "control", "sequence of UniProt Q13153 (whole entry, looked up)": "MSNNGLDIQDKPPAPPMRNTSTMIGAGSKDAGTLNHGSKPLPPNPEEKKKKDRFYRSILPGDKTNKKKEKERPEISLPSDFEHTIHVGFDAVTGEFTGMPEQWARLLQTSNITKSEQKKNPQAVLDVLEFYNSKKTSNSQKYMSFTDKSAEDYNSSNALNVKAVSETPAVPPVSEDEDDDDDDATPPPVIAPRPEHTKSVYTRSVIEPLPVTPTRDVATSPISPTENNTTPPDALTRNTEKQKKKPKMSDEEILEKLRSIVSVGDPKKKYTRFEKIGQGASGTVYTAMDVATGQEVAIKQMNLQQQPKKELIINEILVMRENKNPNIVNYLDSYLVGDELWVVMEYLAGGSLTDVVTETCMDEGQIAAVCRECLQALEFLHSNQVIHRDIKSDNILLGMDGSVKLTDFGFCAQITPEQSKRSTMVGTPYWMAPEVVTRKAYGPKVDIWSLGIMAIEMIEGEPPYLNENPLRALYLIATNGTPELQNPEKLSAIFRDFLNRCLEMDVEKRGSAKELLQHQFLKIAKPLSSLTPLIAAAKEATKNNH"}
{"Compound": "CC(C)[C@H](CO)Nc1nc(Nc2cc(N)cc(Cl)c2)c2ncn(C(C)C)c2n1", "remaining activity [%]": 81.8}
{"Compound": "Cc1nc(-c2ccccc2)c(-c2ccncc2)o1", "remaining activity [%]": 98.7}
{"Compound": "COc1ccc(OC)c2c(=S)c3ccccc3[nH]c12", "remaining activity [%]": 89.2}
{"Compound": "O=C(Nc1cccc(Nc2cc(Nc3cccc(C(F)(F)F)c3)ncn2)c1)C1CC1", "remaining activity [%]": 96.6}
{"Compound": "CO[C@H]1C[C@@H]2CC[C@@H](C)[C@@](O)(O2)C(=O)C(=O)N2CCCC[C@H]2C(=O)O[C@H]([C@H](C)C[C@@H]2CC[C@@H](O)[C@H](OC)C2)CC(=O)[C@H](C)/C=C(\\C)[C@@H](O)[C@@H](OC)C(=O)[C@H](C)C[C@H](C)/C=C/C=C/C=C/1C", "remaining activity [%]": 95.6}
{"Compound": "OCC(O)CCON=C1C(c2c(O)[nH]c3ccccc23)=Nc2ccccc21 (stereo not shown)", "remaining activity [%]": 71.3}
{"Compound": "COc1cc2nccc(Oc3ccc(NC(=S)NC(=O)c4ccccc4C)cc3)c2cc1OC", "remaining activity [%]": 101}
{"Compound": "CNC(=O)c1cc(Oc2ccc(NC(=O)Nc3ccc(Cl)c(C(F)(F)F)c3)cc2)ccn1", "remaining activity [%]": 108}
{"Compound": "COc1cc2ncnc(Nc3ccc(Oc4ccccc4)cc3)c2cc1OC", "remaining activity [%]": 98.2}
{"Compound": "NCCNc1ncc(C(N)=O)c(Nc2cccc(C(F)(F)F)c2)n1", "remaining activity [%]": 86.8}
{"Compound": "C#Cc1cccc(Nc2ncnc3cc(OCCOC)c(OCCOC)cc23)c1", "remaining activity [%]": 109}
{"Compound": "CCOC(=O)c1c(C)[nH]c(/C=C2\\C(=O)Nc3ccccc32)c1C", "remaining activity [%]": 99.9}
{"Compound": "CN(C)c1ccc(C=C2C(=O)Nc3ccccc32)cc1", "remaining activity [%]": 95.7}
{"Compound": "O=c1c2ccccc2[nH]c(=S)n1CCN1CCC(=C(c2ccc(F)cc2)c2ccc(F)cc2)CC1", "remaining activity [%]": 94.6}
{"note": "A few entries again (set 4):"}
{"Compound": "COc1cc2nccc(Oc3ccc(NC(=S)NC(=O)c4ccccc4C)cc3)c2cc1OC", "remaining activity [%]": 101}
{"Compound": "CN(C)c1ccc(C=C2C(=O)Nc3ccccc32)cc1", "remaining activity [%]": 95.7}
{"Compound": "C#Cc1cccc(Nc2ncnc3cc(OCCOC)c(OCCOC)cc23)c1", "remaining activity [%]": 109}
{"Compound": "CNC(=O)c1cc(Oc2ccc(NC(=O)Nc3ccc(Cl)c(C(F)(F)F)c3)cc2)ccn1", "remaining activity [%]": 108}
